Assay results from different studies.
Compare with care: the assays were run in different laboratories. Numbers after ± are the reported error.

CC[C@H](C)C(=O)O[C@H]1C[C@@H](C)C=C2C=C[C@H](C)[C@H](CC[C@@H]3C[C@@H](O)CC(=O)O3)[C@H]21 — result for remaining compound: “not detected” (mouse liver microsomes; 15 min).
CO[C@@H](C[C@H]1C(C)=CC[C@@H]2[C@]3(C)C[C@H](O[C@@H]4O[C@@H](C)[C@H](OC(=O)c5cccc(O)c5)[C@@H](O[C@@H]5O[C@H](CO)[C@@H](O)[C@H](O)[C@H]5NC(C)=O)[C@H]4O)[C@@H](O)C(C)(C)[C@H]3CC[C@]21C)[C@H](N)C(=O)O.O=C(O)C(F)(F)F gave a remaining compound of 100% (simulated gastric fluid with pepsin; 1 µM, 0 min, pH 1.2).
The remaining compound of COc1ccc(-c2cc(NCCCN3CCCCC3)c3ccccc3n2)cc1 is reported as 86.7% (human liver microsomes; 1 h).
C=CC(=O)N1CCC(C(=O)N(C)CC(=O)N2CCN(c3nc(-c4cnc(N)nc4C(F)F)nc(N4CCOCC4)n3)CC2)CC1 has a remaining compound of 92.7% (microsomes, rat liver, male, Sprague-Dawley; 1 µM, 60 min, without NADPH, 0.5 mg/mL microsomal protein).
The remaining compound of CCOC(=O)[C@H](CCc1ccccc1)N[C@@H](C)C(=O)N1CCC[C@H]1C(=O)O is reported as 0% (rat plasma; 1 µM, 2 h).
For CC(C)=CC(=O)CCC(=O)N1CCN(Cc2cc3nc(-c4cccc5[nH]ncc45)nc(N4CCOCC4)c3s2)CC1, the remaining compound was 1.5% (rat liver microsomes; 1 µM, 60 min, protein 0.5 mg/mL, together with: NADPH).
For O=Cc1cc2ccccc2cc1C=O, the remaining compound was 60% (HEPES buffer; 1 mM, 20 h, pH 7.4, 10% acetonitrile).
CC(C)=CCC[C@](C)(O[C@@H]1O[C@H](CO)[C@@H](O)[C@H](O)[C@H]1O)[C@H]1CC[C@]2(C)[C@@H]1[C@H](O)C[C@@H]1[C@@]3(C)CC[C@H](O[C@@H]4O[C@H](CO)[C@@H](O)[C@H](O)[C@H]4O[C@@H]4O[C@H](CO)[C@@H](O)[C@H](O)[C@H]4O)C(C)(C)[C@@H]3CC[C@]12C has a remaining compound of 96.9 ± 2% (rat plasma; 25 ng/mL, 24 h, room temperature).
For Cc1cc2ccccc2n1CCNC(=O)c1ccc(N2CCCC2)cc1, the remaining compound was > 7% (mouse liver microsomes; 60 min).
NCc1cc2c(cc1F)C(=O)N(C1CCC(=O)NC1=O)C2 (stereo not drawn) has a remaining compound of < 1% (male Göttingen minipig, whole blood; 3 h).
O=C(O)c1ccc(-c2cc(NCCCN3CCCCC3)c3ccccc3n2)cc1 gave a remaining compound of 100% (human plasma; 1 h).
COc1ccc2c(Cc3ccccc3F)c3[n+](cc2c1OC)CCc1cc2c(cc1-3)OCO2.[Br-] gave a remaining compound of 45.3 ± 8.7% (human liver microsomes; 10 µM, 30 min, pH 7.4, together with: microsomes 0.5 mg/mL).
The remaining compound of CC[C@H](C)[C@@H]([C@@H](CC(=O)N1CCC[C@H]1[C@H](OC)[C@@H](C)C(=O)N[C@@H](Cc1ccccc1)C(=O)NCCCO)OC)N(C)C(=O)[C@@H](NC(=O)[C@H](C(C)C)N(C)C)C(C)C is reported as 55% (human whole blood; 1 µM, 120 min).
CSc1nccc(C(=O)N[C@@H](CCC(=O)O)C(=O)N[C@@H](Cc2ccc3ccccc3c2)C(=O)N[C@@H](CC(C)C)C(=O)NC2CC2c2ccccc2)n1 (stereo partly drawn) has a remaining compound of 106% (pooled human plasma; 30 min, 37 °C).
For Cn1cncc1-c1c(F)cncc1NC(=O)c1c(N)nn2cc(F)cnc12, the remaining compound was 99.8% (human EDTA plasma; 4000 ng/mL, time not given, 3 freeze-thaw cycles at -80 °C, high QC).
With CN1CCN(C(=O)[C@H](CCCN[C@@H]2C[C@H]2c2ccc(F)cc2)NC(=O)c2ccc(-n3ccnn3)cc2)CC1 the remaining compound was 95% (aqueous buffer; 4 days, 37 °C).
The remaining compound of N#Cc1ccc(Nc2nc(N)cc(Oc3c(F)cc(-c4ccc(C#N)cc4)cc3F)n2)cc1 is reported as 100% (monkey plasma; 1 µM, 0.00 h, pH 7.4, 37 °C).
C[C@]1(C(=O)[C@H](CC2=CCCC2)NC(=O)[C@@H]2Cc3ccc(cc3)OCCCCCCCC(=O)N3CCC[C@H]3C(=O)N2)CO1: remaining compound “not detected” (human liver microsomes; 60 min).
CCOc1ccc2ccc(=O)oc2c1 gave a remaining compound of 0.6% (mouse liver microsomes; 1 µM, 20 min, pH 7.4).
CC[N+]1(C)CCN(c2ccc(NC(=O)c3cccc(C)n3)cc2)CC1 gave a remaining compound of 102% (pooled BALB/c mouse plasma; 1 µM, 1.5 h).
With O=C(Oc1coc(CSc2ncccn2)cc1=O)c1ccc([N+](=O)[O-])cc1 the remaining compound was 60% (RPMI with 10% FBS; 100 µM, 1 day).

A few entries again:
CC[N+]1(C)CCN(c2ccc(NC(=O)c3cccc(C)n3)cc2)CC1 gave a remaining compound of 102% (pooled BALB/c mouse plasma; 1 µM, 1.5 h).
C[C@]1(C(=O)[C@H](CC2=CCCC2)NC(=O)[C@@H]2Cc3ccc(cc3)OCCCCCCCC(=O)N3CCC[C@H]3C(=O)N2)CO1: remaining compound “not detected” (human liver microsomes; 60 min).
